# Assay results pooled from the literature.
# Every numbered part comes from another study and shows a few of its results, in no order.
# Sequence of UniProt P11802 (whole entry, looked up): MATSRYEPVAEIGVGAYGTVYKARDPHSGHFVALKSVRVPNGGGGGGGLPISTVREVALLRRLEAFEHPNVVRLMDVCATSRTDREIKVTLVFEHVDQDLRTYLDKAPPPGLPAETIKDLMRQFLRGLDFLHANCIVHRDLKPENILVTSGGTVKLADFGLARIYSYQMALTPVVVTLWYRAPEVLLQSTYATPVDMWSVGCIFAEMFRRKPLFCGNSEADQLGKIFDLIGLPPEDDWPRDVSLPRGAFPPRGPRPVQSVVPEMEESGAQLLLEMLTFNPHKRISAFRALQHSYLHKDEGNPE
# Sequence of UniProt P51955 (whole entry, looked up): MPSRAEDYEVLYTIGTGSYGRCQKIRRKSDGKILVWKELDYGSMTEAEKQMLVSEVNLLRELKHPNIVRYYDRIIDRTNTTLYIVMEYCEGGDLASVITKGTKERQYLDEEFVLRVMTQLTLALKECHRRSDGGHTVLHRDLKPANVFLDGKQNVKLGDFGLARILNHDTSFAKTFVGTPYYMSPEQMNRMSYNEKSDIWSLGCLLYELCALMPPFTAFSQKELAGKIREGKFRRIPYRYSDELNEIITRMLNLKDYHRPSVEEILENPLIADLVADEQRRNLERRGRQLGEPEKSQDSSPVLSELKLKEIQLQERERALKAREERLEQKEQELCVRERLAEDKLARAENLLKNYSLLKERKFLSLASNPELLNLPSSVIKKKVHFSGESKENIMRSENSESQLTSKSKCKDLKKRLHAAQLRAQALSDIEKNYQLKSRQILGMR
# Sequence of UniProt P35626 (whole entry, looked up): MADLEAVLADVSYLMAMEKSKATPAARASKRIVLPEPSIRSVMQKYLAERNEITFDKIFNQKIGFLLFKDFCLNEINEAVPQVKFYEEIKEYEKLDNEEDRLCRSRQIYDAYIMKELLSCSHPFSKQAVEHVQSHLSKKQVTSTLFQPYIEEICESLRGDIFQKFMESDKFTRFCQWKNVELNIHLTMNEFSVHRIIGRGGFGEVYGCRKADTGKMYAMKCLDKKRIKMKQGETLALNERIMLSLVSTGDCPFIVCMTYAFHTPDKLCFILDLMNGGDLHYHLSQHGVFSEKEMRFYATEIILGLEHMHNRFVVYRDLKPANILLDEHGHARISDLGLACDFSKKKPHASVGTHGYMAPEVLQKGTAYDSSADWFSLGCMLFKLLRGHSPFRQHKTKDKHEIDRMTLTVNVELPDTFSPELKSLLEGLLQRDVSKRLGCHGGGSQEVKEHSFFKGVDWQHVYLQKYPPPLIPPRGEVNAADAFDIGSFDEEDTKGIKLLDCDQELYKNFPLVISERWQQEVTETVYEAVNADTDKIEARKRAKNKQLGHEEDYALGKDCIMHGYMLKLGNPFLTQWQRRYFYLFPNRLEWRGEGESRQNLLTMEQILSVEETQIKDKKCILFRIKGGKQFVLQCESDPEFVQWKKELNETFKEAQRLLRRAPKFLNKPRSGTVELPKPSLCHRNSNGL
# Sequence of UniProt Q13976 (whole entry, looked up): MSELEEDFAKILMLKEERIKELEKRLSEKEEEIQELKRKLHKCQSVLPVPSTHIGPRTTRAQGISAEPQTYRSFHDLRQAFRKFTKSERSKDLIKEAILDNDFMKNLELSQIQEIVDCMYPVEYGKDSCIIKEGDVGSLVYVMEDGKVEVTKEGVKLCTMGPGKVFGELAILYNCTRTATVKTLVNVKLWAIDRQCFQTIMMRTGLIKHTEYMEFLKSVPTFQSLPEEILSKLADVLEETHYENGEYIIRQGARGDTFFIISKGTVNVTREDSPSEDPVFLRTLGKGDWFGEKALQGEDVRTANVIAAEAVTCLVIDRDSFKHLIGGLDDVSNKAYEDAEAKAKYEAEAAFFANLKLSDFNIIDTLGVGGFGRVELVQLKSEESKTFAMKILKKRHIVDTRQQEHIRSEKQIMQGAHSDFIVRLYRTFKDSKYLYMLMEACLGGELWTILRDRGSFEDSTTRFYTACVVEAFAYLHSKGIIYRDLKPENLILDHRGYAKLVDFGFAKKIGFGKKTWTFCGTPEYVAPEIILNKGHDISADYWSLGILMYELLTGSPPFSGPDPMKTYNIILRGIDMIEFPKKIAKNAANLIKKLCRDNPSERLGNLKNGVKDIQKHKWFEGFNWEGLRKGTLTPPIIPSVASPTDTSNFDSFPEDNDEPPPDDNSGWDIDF
# Sequence of UniProt P37173 (whole entry, looked up): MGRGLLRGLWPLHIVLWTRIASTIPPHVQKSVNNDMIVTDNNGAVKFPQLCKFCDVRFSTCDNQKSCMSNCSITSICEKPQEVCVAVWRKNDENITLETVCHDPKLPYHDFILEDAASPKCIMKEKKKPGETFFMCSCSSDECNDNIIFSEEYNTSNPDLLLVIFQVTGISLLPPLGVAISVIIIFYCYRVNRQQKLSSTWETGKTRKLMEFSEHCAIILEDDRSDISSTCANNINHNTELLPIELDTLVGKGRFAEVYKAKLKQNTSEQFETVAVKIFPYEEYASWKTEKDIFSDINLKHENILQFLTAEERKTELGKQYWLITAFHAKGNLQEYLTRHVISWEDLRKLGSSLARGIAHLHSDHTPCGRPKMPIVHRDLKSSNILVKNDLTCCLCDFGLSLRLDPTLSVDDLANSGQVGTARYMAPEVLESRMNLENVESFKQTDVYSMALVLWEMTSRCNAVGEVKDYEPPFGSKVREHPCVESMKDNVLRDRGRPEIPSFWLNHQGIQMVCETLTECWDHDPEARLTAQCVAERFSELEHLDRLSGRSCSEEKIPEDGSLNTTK
# Sequence of UniProt P61075 (whole entry, looked up): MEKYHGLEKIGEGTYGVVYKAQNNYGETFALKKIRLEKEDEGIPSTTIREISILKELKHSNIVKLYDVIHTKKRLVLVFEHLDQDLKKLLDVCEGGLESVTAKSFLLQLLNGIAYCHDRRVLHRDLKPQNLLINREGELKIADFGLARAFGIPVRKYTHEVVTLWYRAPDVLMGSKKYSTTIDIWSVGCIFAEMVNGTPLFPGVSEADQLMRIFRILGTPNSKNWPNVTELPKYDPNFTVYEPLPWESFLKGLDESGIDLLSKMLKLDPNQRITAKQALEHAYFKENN

# Study 1 — cell line: HaCaT; tested at: 100 µM; time: 36 h
SMILES,viability
COC1=C[C@@H]2[C@@H]3Cc4ccc(OC)c(O)c4[C@]2(CCN3C)CC1=O,86%
CCN1CC2(COC)CCC(OC)C34C5CC6(O)C(OC)CC(OC(C)=O)(C5C6C(=O)c5ccc(OC)cc5)C(C(OC)C23)C14 (centres unmarked),95.9%
CN1C(=O)CCS(=O)(=O)C1c1ccc(Cl)cc1 (centres unmarked),91.3%

# Study 2 — read-out: enzyme activity; mode: inhibitor; tested at: 0.5 µM; reference: control
# Compound: COC[C@H]1OC(=O)c2coc3c2[C@@]1(C)C1=C(C3=O)[C@@H]2CCC(=O)[C@@]2(C)C[C@H]1OC(C)=O
target,remaining activity
"TGFBR2 (Homo sapiens, UniProt P37173)",104%
"cGMP-dependent protein kinase 1, isoform beta (PRKG1, Homo sapiens, UniProt Q13976)",98.3%
"Cyclin-dependent kinase 4, with cyclin D1 (CDK4, Homo sapiens, UniProt P11802)",94.8%
"GRK3 (Homo sapiens, UniProt P35626)",92.8%
"NEK2 (Homo sapiens, UniProt P51955)",89.2%

# Further values, each from its own experiment
SMILES,tested on,assay,setting,endpoint,value
CCC(COC(=O)c1cc(OC)c(OC)c(OC)c1)(c1ccccc1)N(C)C.O=C(O)/C=C\C(=O)O (centres unmarked),Sarcocystis neurona,parasite growth,"10 µM, second screen",inhibition,-49.9%
COc1cc(-c2cn(C3CCc4ccccc4N(CC(F)(F)F)C3=O)nn2)ccc1-n1ccc(C)n1 (centres unmarked),"CRK2 (Plasmodium falciparum, UniProt P61075)","cell-free assay, competition with immobilised ligand",1 µM,remaining binding,100%
Cl.Oc1cc2c(cc1O)[C@H]1c3ccccc3CN[C@@H]1CC2,Sarcocystis neurona,parasite growth,"10 µM, second screen",inhibition,-68.2%

# Excerpt of the above (study 2):
target,remaining activity
"cGMP-dependent protein kinase 1, isoform beta (PRKG1, Homo sapiens, UniProt Q13976)",98.3%
"Cyclin-dependent kinase 4, with cyclin D1 (CDK4, Homo sapiens, UniProt P11802)",94.8%
